Measured values from different studies.
Parts stem from different laboratories: compare values within a part only. Several values in a cell are separate wells, animals, samples, runs or records.
Sequence of UniProt Q05397 (whole entry, looked up): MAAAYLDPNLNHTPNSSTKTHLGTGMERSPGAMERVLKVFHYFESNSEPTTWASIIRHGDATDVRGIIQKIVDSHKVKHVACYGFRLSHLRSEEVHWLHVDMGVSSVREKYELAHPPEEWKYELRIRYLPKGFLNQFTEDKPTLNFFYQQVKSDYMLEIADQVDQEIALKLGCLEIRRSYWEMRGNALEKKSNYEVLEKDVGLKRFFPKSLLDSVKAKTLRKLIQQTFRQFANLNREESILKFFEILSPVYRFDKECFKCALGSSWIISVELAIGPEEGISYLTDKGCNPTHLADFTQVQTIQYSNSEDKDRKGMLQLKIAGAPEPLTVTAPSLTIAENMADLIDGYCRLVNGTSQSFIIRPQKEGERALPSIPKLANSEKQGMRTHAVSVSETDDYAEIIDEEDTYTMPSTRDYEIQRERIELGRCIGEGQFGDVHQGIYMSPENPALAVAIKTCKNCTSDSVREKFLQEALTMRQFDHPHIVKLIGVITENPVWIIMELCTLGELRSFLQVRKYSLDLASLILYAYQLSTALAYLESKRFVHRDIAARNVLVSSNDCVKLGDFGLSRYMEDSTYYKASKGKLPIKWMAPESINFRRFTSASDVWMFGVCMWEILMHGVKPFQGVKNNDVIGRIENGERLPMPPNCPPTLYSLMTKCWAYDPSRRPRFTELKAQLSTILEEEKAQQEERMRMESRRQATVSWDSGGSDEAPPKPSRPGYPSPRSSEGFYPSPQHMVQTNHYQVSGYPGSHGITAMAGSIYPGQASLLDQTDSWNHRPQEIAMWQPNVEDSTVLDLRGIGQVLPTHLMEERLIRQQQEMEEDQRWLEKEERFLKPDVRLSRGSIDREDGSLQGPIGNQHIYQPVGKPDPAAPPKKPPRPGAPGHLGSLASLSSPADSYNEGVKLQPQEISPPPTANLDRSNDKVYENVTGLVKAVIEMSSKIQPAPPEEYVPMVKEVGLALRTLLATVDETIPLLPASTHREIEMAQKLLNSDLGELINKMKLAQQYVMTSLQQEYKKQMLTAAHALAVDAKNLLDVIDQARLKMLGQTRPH
Sequence of UniProt P33981 (whole entry, looked up): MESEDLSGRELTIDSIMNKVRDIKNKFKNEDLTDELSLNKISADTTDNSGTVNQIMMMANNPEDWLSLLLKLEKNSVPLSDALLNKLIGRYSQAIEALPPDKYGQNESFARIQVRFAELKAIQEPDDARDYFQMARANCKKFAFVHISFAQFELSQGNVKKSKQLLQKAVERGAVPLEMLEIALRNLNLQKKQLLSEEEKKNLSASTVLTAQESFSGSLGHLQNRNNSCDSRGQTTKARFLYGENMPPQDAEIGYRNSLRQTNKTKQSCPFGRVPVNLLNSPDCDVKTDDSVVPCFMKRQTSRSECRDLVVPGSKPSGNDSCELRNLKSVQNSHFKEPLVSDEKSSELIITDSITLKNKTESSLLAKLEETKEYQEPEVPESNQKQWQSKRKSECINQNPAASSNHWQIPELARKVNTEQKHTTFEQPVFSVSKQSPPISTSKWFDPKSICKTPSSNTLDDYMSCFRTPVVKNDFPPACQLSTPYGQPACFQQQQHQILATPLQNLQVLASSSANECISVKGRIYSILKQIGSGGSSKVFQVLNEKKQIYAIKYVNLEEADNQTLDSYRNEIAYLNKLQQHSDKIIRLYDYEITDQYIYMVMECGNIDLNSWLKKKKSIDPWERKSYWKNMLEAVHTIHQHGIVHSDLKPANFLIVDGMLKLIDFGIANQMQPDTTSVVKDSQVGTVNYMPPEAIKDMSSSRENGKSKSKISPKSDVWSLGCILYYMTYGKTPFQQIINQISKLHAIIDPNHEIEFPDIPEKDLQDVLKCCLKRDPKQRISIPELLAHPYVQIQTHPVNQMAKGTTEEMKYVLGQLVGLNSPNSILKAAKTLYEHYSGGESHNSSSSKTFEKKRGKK
Sequence of UniProt O43318 (whole entry, looked up): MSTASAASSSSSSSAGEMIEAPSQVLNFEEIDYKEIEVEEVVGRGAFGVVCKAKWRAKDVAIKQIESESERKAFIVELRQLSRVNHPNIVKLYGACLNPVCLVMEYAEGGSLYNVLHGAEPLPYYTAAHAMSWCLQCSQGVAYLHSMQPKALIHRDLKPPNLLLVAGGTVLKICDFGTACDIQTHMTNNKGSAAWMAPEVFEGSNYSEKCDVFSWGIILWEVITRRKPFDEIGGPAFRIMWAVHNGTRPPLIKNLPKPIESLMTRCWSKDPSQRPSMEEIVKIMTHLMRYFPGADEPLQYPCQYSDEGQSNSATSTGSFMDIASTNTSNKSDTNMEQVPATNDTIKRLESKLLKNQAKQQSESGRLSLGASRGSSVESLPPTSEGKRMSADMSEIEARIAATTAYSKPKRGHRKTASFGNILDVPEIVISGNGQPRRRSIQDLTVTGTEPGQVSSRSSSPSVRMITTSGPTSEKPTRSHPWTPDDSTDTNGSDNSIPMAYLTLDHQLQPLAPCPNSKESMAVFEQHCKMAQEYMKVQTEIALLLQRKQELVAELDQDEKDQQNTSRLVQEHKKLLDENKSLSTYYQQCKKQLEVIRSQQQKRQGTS
Sequence of UniProt Q9UQM7 (whole entry, looked up): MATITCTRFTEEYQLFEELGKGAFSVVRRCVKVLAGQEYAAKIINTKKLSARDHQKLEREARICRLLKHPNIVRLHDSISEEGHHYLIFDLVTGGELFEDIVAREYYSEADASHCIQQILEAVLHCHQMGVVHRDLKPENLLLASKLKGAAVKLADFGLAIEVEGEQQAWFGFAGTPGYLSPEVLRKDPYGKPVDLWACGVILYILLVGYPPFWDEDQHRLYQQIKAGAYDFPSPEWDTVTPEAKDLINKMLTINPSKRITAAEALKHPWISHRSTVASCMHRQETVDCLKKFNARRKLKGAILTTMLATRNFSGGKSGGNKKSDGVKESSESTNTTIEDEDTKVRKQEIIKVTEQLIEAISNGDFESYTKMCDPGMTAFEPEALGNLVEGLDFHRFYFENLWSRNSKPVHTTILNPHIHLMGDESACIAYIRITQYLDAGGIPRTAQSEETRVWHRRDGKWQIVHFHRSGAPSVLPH
Sequence of UniProt Q13188 (whole entry, looked up): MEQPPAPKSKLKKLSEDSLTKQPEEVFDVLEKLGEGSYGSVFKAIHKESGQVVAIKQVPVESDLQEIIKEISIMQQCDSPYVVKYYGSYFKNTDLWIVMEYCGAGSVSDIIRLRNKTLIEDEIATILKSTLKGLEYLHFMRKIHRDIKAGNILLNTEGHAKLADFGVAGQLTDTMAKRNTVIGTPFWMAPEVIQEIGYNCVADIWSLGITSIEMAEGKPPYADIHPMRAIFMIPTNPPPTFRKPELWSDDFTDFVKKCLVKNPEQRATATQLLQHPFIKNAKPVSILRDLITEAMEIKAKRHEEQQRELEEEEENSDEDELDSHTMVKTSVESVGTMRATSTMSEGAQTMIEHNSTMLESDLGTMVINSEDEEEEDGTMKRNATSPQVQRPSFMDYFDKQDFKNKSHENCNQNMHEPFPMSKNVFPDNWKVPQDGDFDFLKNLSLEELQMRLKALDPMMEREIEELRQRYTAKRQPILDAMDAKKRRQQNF
Sequence of UniProt Q13882 (whole entry, looked up): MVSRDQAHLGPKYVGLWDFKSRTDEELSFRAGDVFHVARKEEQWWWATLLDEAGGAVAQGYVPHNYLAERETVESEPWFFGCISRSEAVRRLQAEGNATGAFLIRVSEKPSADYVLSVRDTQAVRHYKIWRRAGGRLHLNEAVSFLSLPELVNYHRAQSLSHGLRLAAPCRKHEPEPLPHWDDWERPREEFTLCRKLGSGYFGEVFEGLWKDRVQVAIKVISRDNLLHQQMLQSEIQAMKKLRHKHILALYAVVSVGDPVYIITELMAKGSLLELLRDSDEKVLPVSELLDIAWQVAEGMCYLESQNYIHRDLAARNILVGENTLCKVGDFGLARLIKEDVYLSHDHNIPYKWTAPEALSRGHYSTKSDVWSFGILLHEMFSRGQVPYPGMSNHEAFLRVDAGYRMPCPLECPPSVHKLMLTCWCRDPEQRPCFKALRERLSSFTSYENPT

Sample 1
SMILES: O=C1NC(=O)c2c1c1c3ccccc3n3c1c1c2c2ccccc2n1[C@H]1CC[C@@H]3O1
Observed: enzyme activity
Mode: inhibitor
Tested at: 0.5 µM
Baseline: control
Quantity: remaining activity
target = SYK (Homo sapiens, UniProt P43405); result = 15.8%
target = CAMK2A (Homo sapiens, UniProt Q9UQM7); result = 2.84%
target = PTK6 (Homo sapiens, UniProt Q13882); result = 83.9%
target = PIM3 (Homo sapiens, UniProt Q86V86); result = 0.238%
target = TSSK1B (Homo sapiens, UniProt Q9BXA7); result = 17.7%
target = SRPK2 (Homo sapiens, UniProt P78362); result = 107%
target = PDGFRA (Homo sapiens, UniProt P16234); result = 32.8%
target = HASPIN (Homo sapiens, UniProt Q8TF76); result = 18.5%
target = TTK (Homo sapiens, UniProt P33981); result = 76.4%
target = STK4 (Homo sapiens, UniProt Q13043); result = 3.56%
target = Aurora kinase B (AURKB, Homo sapiens, UniProt Q96GD4); result = 9.52%
target = MAP3K7 (Homo sapiens, UniProt O43318); result = 6.06%
target = NTRK1 (Homo sapiens, UniProt P04629); result = 4.98%
target = CHUK (Homo sapiens, UniProt O15111); result = 106%
target = ZAP70 (Homo sapiens, UniProt P43403); result = 88.4%
target = PTK2 (Homo sapiens, UniProt Q05397); result = 23.5%
target = Cyclin-dependent kinase 6, with cyclin D1 (CDK6, Homo sapiens, UniProt Q00534); result = 6.06%
target = STK3 (Homo sapiens, UniProt Q13188); result = 3.22%

Sample 2
Structure (SMILES): CC[C@@H](C)c1nc2cc(Nc3ccnc4ccc(S(=O)(=O)C(C)C)cc34)ccc2s1.Cl
Technique: CCK-8
Quantity: survival
cell line = L929 RIPK3-/- reexpressing RIPK3 K51A/R69H; setting = 12.5 µM; result = 88.6% and 93.7% and 92.1% and 92.3% and 93.5%
cell line = L929 RIPK3-/- reexpressing RIPK3 K51A/R69H; setting = 3.125 µM; result = 97.6% and 98.6% and 89.1%
cell line = L929 RIPK3-/- reexpressing RIPK3 K51A/R69H; setting = 25 µM; result = 82.3% and 81.7% and 89.3% and 80%
cell line = L929 RIPK3-/- reexpressing RIPK3 K51A/R69H; setting = 50 µM; result = 52.4% and 39.9% and 34.2% and 33.5%
cell line = L929 RIPK3-/- reexpressing RIPK3 K51A/R69H; setting = 50 µM, with: zVAD; result = 33.5% and 31.3% and 42.5% and 32%
cell line = L929 RIPK3-/- reexpressing RIPK3 K51A; setting = 50 µM, with: zVAD; result = 27.3% and 27.5% and 51.6% and 49.8%
cell line = L929 RIPK3-/- reexpressing RIPK3 K51A; setting = 3.125 µM; result = 97.7% and 97.3% and 103% and 90.8%
cell line = L929 RIPK3-/- reexpressing RIPK3 K51A; setting = 6.25 µM; result = 88% and 102% and 94.3% and 89.1% and 90.6%

Sample 3
Cell line: mouse MPNST tumor cells
Technique: high-content immunofluorescence imaging
Refers to: nuclear SOX9
Tested at: 10 µM
Time: 12 h
Notes: mean of 2 replicates
Baseline: DMSO control
Direction: higher = more nuclear SOX9
Quantity: nuclear SOX9 intensity
Structure (SMILES) = CC(C)=CCCN1CCC(NC(=O)[C@](O)(c2ccccc2)C2CCCC2)CC1; result = 120 % of DMSO
Structure (SMILES) = O=C(N[C@H]1CN2CCC1CC2)c1ccc2c(c1)OCCO2; result = 96.1 % of DMSO
Structure (SMILES) = C=CCC1(CC(C)C)C(=O)NC(=O)NC1=O; result = 102 % of DMSO
Structure (SMILES) = O=C(NCCN1CCC2(CC1)C(=O)NCN2c1cccc(F)c1)c1ccc(F)c(F)c1; result = 132 % of DMSO

Sample 4
Target: Beta-1 adrenergic receptor (ADRB1, Homo sapiens, UniProt P08588)
Sequence of UniProt P08588 (whole entry, looked up): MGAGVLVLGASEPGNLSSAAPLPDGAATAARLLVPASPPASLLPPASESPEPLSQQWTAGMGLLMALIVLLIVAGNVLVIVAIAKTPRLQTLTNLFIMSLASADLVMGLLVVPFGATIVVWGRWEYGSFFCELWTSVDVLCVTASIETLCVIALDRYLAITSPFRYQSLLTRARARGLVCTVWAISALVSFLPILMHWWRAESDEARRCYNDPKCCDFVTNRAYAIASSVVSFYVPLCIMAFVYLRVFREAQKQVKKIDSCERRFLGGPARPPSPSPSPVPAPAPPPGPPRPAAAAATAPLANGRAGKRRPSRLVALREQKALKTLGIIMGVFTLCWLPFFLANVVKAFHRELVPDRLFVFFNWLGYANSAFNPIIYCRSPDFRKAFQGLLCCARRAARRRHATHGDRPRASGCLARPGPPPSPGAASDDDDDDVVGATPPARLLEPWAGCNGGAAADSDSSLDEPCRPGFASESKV
Mode: antagonist
Quantity: IC50
Compound = Nc1ncnc2c1ncn2[C@@H]1O[C@@H]2COP(O)(=S)O[C@H]2[C@H]1O (some centres unmarked); result = ≥ 100 µM
Compound = CNc1ccc2c(CCN)cc(=O)oc2c1; result = 31.6 µM
Compound = O=C1C=CC(=O)c2c1ccc1c2ccc2ccccc21; result = ≥ 100 µM
Compound = C[C@H](Cc1ccc2c(c1)OC(C(=O)O)(C(=O)O)O2)NC[C@H](O)c1cccc(Cl)c1; result = ≥ 100 µM
Compound = Fc1cc(C2=CC3CCC(C2)N3Cc2ccc3ccccc3n2)ccc1-c1ccccc1 (centres unmarked); result = ≥ 100 µM

Sample 5
Compound: O=C1CCC(N2Cc3c(ccc4c3OCC43CCN(Cc4ccccc4)CC3)C2=O)C(=O)N1 (centres unmarked)
Sample: plasma
Quantity: Cmax
system = male Sprague-Dawley rat; setting = oral, 3 mg/kg; result = 263 ng/mL
system = male ICR mice; setting = oral, 3.0 mg/kg; result = 340 ng/mL
system = male ICR mice; setting = intravenous, 1.0 mg/kg; result = 314 ng/mL and 263 ng/mL
system = male CD-1 mouse; setting = oral, 3 mg/kg; result = 398 ng/mL
system = ICR mouse, male; setting = intravenous, 1.0 mg/kg; result = 320 ng/mL
system = male Sprague-Dawley rat; setting = intravenous, 1 mg/kg; result = 374 ng/mL

A few entries again (sample 1):
target = HASPIN (Homo sapiens, UniProt Q8TF76); result = 18.5%
target = TTK (Homo sapiens, UniProt P33981); result = 76.4%
target = SRPK2 (Homo sapiens, UniProt P78362); result = 107%
